Measured values gathered from unrelated publications.
Each line is one published result; not all experiments were run side by side. Several values in a cell are separate wells, animals, samples, runs or records. Numbers after ± are the reported error.

C=C1C2CCC(C2)C1(C)C (stereo not shown)  detoxification rate ratio (pygmy rabbit over mountain cottontail, liver microsomes; 15 min, pH 7.4; reference: Brachylagus idahoensis over Sylvilagus nuttallii): 2.3 fold
CC[C@H](C)[C@H](NC(=O)[C@@H](N)CCCNC(=N)N)C(=O)N[C@H](C(=O)N1CCC[C@H]1C(=O)N[C@@H](C)C(N)=O)C(C)C  Tmax (healthy volunteers, both sexes, plasma; intravenous infusion, 0.5 mg/kg daily, day 7, multiple ascending dose): 4 min
COc1cc(-c2nc(-c3ccccc3)c(-c3cccs3)[nH]2)cc(OC)c1OP(=O)(O)O  remaining compound (C57BL/6 mouse, CES1 knockout, brain homogenate; 10 µM, 1 h, 37 °C): > 75%
CC(=O)N[C@H](C(=O)N[C@@H](CO)C(=O)N[C@@H](CCCNC(=N)N)C(=O)N[C@@H](CCCNC(=N)N)C(=O)N[C@@H](CCCNC(=N)N)C(N)=O)C(C)C  AUC(tau) accumulation ratio (healthy adults; intravenous infusion, 1 mg/kg every 6 h, over 30 min, maximum among subjects; reference: dose 13 over dose 1): 1.5
COc1ccc2c(c1)[nH]c1c(C)nccc12  oral bioavailability (Sprague Dawley rat, plasma; oral, 60 mg/kg; reference: intravenous 20 mg/kg): 29.2%
Cc1nc(-c2nc(-c3ccc(OC(F)(F)F)cc3)no2)nn1Cc1cccc(N2CCC(S(C)(=O)=O)CC2)c1  patients with lactate increase (solid tumour patients; dose not given, treatment-related, without lactic acidosis): 87%
CSCC[C@@H]1NC(=O)[C@H](CC(=O)O)NC(=O)CNC(=O)[C@H](CCCNC(=N)N)NC(=O)[C@H](C)NC(=O)[C@H](CCC(=O)O)NC(=O)[C@H](CCCNC(=N)N)NC(=O)[C@@H]2CSSC[C@@H]3NC(=O)[C@H](CO)NC(=O)[C@H]([C@@H](C)O)NC(=O)[C@@H]4CCCN4C(=O)[C@H](C)NC(=O)[C@H](Cc4c[nH]c5ccccc45)NC(=O)[C@H](CC(=O)O)NC(=O)CNC(=O)[C@H](CCCNC(=N)N)NC(=O)CNC(=O)[C@H](CCC(N)=O)NC(=O)[C@@H]4CCCN4C(=O)[C@@H](NC(=O)CNC(=O)C(C)F)CSSC[C@H](NC(=O)CNC(=O)[C@H](C)NC(=O)[C@H](CC(C)C)NC(=O)[C@H](CSSC[C@@H](C(=O)NCC(N)=O)NC(=O)[C@H]([C@@H](C)O)NC(=O)[C@H](CCCNC(=N)N)NC(=O)[C@@H]4CCCN4C1=O)NC(=O)[C@H](CC(=O)O)NC(=O)[C@H](CO)NC(=O)[C@H](CC(=O)O)NC(=O)[C@H](CCC(N)=O)NC(=O)[C@H](CO)NC3=O)C(=O)N[C@@H](C(C)C)C(=O)N2 (stereo partly shown) [fluorine-18 labelled]  tissue uptake (nude mice U-87 MG xenograft, lungs; intravenous, 2.5 h): 0.54 ± 0.1 %ID/g
CC(=O)[O][Pt]([NH2])([Cl])([Cl])([NH]C1CCCCC1)[O]C(C)=O  AUC(0-inf) (atomic absorption spectroscopy, measured: platinum; rhesus monkey, plasma ultrafiltrate; intravenous infusion over 1 h, 6 mg/kg): 32.1 µM·h and 35.1 µM·h and 38.2 µM·h
CC1(C)S[C@@H]2[C@H](NC(=O)[C@@H](C(=O)O)c3ccsc3)C(=O)N2[C@H]1C(=O)O  measured concentration (rat plasma; 30 ng/mL, -20 °C to room temperature, three freeze-thaw cycles): 31.5 ± 1.7 ng/mL
N#Cc1ccc(N2N=C3c4ccc(C(=O)N5CCC(O)CC5)nc4CC[C@@H]3[C@@H]2C2CCCC2)cc1Cl  AUClast ratio (human, plasma; concentration not given, with: itraconazole; reference: with itraconazole over alone): ~1.7 fold
C[N+](C)(C)[C@@H](Cc1c[nH]c(=S)[nH]1)C(=O)[O-]  decrease in tissue partition coefficient (rat treated with 1,25-dihydroxyvitamin D3, heart; intravenous; reference: untreated control rats): 50.8%
ClC=C(Cl)Cl  compartment 2 half-life (human, venous blood; inhalation, 100 ppmv for 4 h): 1.08 h and 5.5 h
CCCCCOc1ccc(-c2cc(-c3ccc(C(=O)N[C@H]4C[C@@H](O)[C@@H](O)NC(=O)[C@@H]5[C@@H](O)[C@@H](C)CN5C(=O)[C@H]([C@H](O)CC(N)=O)NC(=O)[C@H]([C@H](O)[C@@H](O)c5ccc(O)c(OS(=O)(=O)O)c5)NC(=O)[C@@H]5C[C@@H](O)CN5C(=O)[C@H]([C@@H](C)O)NC4=O)cc3)no2)cc1  AUC(0-tau) (human paediatric patients 6 to sample C years, plasma; intravenous, 3 mg/kg once daily, day 7, median): 249000 ng·h/mL
O=C(NCc1ccc(F)cc1F)c1cn(Cc2ccccc2)cc(O)c1=O  solubility (PBS; 72 h, pH 7.2): 2.2 µM
O[C@H]1CCCN[C@@H]1CCCn1cnc2c(Cl)c(Cl)ccc21  MRT (human, plasma; oral, 500 mg, single dose, healthy volunteers): 9.57 h
CC(=O)N[C@H](CCCCNC(=O)C(C)F)C(=O)N[C@@H](CS)C(=O)N[C@@H](CS)C(=O)N[C@@H](CCC(=O)O)C(=O)N[C@@H](Cc1c[nH]cn1)C(=O)N[C@H](Cc1ccccc1)C(=O)N[C@@H](CCCNC(=N)N)C(=O)N[C@@H](Cc1c[nH]c2ccccc12)C(=O)N[C@@H](CS)C(=O)N[C@@H](CCCNC(=N)N)C(=O)N1CCC[C@H]1C(=O)N[C@H](C(N)=O)C(C)C (stereo partly shown) [fluorine-18 labelled]  tissue uptake (C57BL/6 mice, male, B16-F10 tumour, stomach; intravenous, 4 h): 0.31 ± 0.07 %ID/g
[123I]c1cncc(OC[C@@H]2CCN2)c1  tissue/plasma ratio (SPECT; human, temporal lobe; intravenous bolus plus infusion, 7.7 mCi; reference: plasma): 22.3
Cn1cc(C2=C(c3cn(C4CCN(Cc5ccccn5)CC4)c4ccccc34)C(=O)NC2=O)c2ccccc21  AUC(0-tau) at steady state (human, cancer patients, plasma; oral, 250 mg once daily, cycle 1 day 22, with: erlotinib 150 mg daily): 6.59 µM·h
CCCCCCCCCCCC[N+](C)(C)CCCCCCCCCCCC  intrinsic clearance (substrate depletion; human liver microsomes; 0.5 µM, 0 to 3 h, 37 °C, with: NADPH): 0.161 mL/h/mg protein
CC(C)(NC(=O)c1nn(Cc2ccc(F)cc2)c2ccccc12)c1cccc(C(N)=O)c1  half-life (C57BL/6 mouse, plasma; intraperitoneal, 2.5 mg/kg): 1.1 h
CC1N=C(c2ccccc2F)c2cc(Nc3ccc(Cl)cc3)ccc2NC1=O (stereo not shown)  solubility (shake flask; PBS; 24 h, pH 7.4): 6.83 µM
COc1ccc(OCC2c3cccn3CC(=O)N2Cc2cccc(F)c2)cc1 (stereo not shown)  Cmax (C57BL/6 mouse male, brain; intraperitoneal, 10 mg/kg): 962 ± 210 ng/mL
CC(C)C[C@H](NC(=O)[C@H](CCC(=O)O)NC(=O)[C@H](CCC(=O)O)NC(=O)[C@H](CC(=O)O)NC(=O)[C@H](CCC(=O)O)NC(=O)[C@H](CCC(=O)O)NC(=O)[C@H](CCC(=O)O)NC(=O)[C@@H](N)CC(=O)O)C(=O)O  concentration (rat, plasma; subcutaneous, 11.0 mg/kg, 15 min): 3090 ng/mL
CCCCCOc1ccc(-c2ccc(-c3ccc(C(=O)N[C@H]4C[C@@H](O)[C@@H](O)NC(=O)[C@@H]5[C@@H](O)[C@@H](C)CN5C(=O)[C@H]([C@@H](C)O)NC(=O)[C@H]([C@H](O)[C@@H](O)c5ccc(O)cc5)NC(=O)[C@@H]5C[C@@H](O)CN5C(=O)[C@H]([C@@H](C)O)NC4=O)cc3)cc2)cc1  median AUC at steady state (noncompartmental; human neonates not on ECMO, complete sampling, plasma; intravenous, 1.5 mg/kg/day maintenance, doses 3-5, 1 neonate excluded): 85500 ng·h/mL
[Met(O2)35]Aβ40  delay of fibril formation (electron microscopy; sodium phosphate buffer; 10 µM, pH 7.4, 25 °C, agitation 200 rpm; reference: wild-type peptide): ~24 h
CC[C@@]1(O)C(=O)OCc2c1cc1n(c2=O)Cc2cc3c(CN(C)C)c(O)ccc3nc2-1  AUC(0-inf) (human patients, plasma; oral, 2.5 mg daily for 5 days, geometric mean, alone): 45 ng·h/mL
Cc1c(P(=S)(c2ccccc2)c2ccccc2)n2ccccc2[n+]1C/C=C/c1ccccc1  plasma concentration (mouse, plasma; intraperitoneal, 10 mg/kg, 1 h): 259 ng/mL
CNC(=O)c1ccc(-c2cnn3ccc(C(=O)N(C)c4ccc(Cl)c(C(=O)OC)c4)cc23)cc1  Cmax (beagle dogs, both sexes, plasma; oral, 50 mg/kg/day, day 14): 38.7 ng/mL
CCCCCOc1ccc(-c2ccc(-c3ccc(C(=O)N[C@H]4C[C@@H](O)[C@@H](O)NC(=O)[C@@H]5[C@@H](O)[C@@H](C)CN5C(=O)[C@H]([C@@H](C)O)NC(=O)[C@H]([C@H](O)[C@@H](O)c5ccc(O)cc5)NC(=O)[C@@H]5C[C@@H](O)CN5C(=O)[C@H]([C@@H](C)O)NC4=O)cc3)cc2)cc1  patients with gastrointestinal adverse events (adult patients; iv, dose not given, 3, during treatment): 30%
NC(=O)c1nc(F)c[nH]c1=O  solubility (UV-Vis spectrophotometry; supercritical CO2; 120 min, 308 K, 12 MPa, 768.42 kg/m^3): 146 µg/mL
CN[C@@](C)(C[18F])C(=O)O  tracer uptake (mouse, muscle; 15 min, tumour-bearing): 1.2 %ID/g
O=C(Nc1cc(Cl)cc2cccnc12)c1ccc([N+](=O)[O-])s1  kinetic solubility: ≤ 0.06 µM
CC(C)[C@H](O)C(=O)N[C@H]1Cc2ccc3c(c2)[C@]2(C4=C(c5nc(CO)co5)N=C(O4)[C@H](C(C)(C)C)NC1=O)c1cc(F)ccc1N[C@@H]2O3  NOAEL (mice): 36 mg/m²
Cc1cnc(C(=O)N[C@H]2CCCCC/C=C\[C@@H]3C[C@@]3(C(=O)NS(=O)(=O)C3CC3)NC(=O)[C@@H]3C[C@@H](Oc4nc5ccccc5c5ccccc45)CN3C2=O)cn1  AUC(0-24) (healthy human volunteers, plasma; oral, dose not given, alone, escitalopram interaction study): 2700 ng·h/mL

Repeated from above:
N#Cc1ccc(N2N=C3c4ccc(C(=O)N5CCC(O)CC5)nc4CC[C@@H]3[C@@H]2C2CCCC2)cc1Cl  AUClast ratio (human, plasma; concentration not given, with: itraconazole; reference: with itraconazole over alone): ~1.7 fold
COc1ccc2c(c1)[nH]c1c(C)nccc12  oral bioavailability (Sprague Dawley rat, plasma; oral, 60 mg/kg; reference: intravenous 20 mg/kg): 29.2%
Cc1nc(-c2nc(-c3ccc(OC(F)(F)F)cc3)no2)nn1Cc1cccc(N2CCC(S(C)(=O)=O)CC2)c1  patients with lactate increase (solid tumour patients; dose not given, treatment-related, without lactic acidosis): 87%
